Measurements from different studies.
Parts stem from different laboratories: compare values within a part only.
Chain of UniProt P49841 (whole entry, looked up): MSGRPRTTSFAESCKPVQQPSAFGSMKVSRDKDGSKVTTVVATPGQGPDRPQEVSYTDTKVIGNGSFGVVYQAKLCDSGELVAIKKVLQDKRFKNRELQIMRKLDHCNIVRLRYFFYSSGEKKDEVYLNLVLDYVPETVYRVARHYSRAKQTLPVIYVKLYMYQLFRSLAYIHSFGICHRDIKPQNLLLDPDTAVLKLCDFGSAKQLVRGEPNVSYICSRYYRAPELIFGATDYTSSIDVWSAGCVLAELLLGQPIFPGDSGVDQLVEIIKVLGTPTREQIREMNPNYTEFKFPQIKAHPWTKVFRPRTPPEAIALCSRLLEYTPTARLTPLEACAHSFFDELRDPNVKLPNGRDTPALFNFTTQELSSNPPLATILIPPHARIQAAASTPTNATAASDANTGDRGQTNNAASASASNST
Chain of UniProt Q04912 (whole entry, looked up): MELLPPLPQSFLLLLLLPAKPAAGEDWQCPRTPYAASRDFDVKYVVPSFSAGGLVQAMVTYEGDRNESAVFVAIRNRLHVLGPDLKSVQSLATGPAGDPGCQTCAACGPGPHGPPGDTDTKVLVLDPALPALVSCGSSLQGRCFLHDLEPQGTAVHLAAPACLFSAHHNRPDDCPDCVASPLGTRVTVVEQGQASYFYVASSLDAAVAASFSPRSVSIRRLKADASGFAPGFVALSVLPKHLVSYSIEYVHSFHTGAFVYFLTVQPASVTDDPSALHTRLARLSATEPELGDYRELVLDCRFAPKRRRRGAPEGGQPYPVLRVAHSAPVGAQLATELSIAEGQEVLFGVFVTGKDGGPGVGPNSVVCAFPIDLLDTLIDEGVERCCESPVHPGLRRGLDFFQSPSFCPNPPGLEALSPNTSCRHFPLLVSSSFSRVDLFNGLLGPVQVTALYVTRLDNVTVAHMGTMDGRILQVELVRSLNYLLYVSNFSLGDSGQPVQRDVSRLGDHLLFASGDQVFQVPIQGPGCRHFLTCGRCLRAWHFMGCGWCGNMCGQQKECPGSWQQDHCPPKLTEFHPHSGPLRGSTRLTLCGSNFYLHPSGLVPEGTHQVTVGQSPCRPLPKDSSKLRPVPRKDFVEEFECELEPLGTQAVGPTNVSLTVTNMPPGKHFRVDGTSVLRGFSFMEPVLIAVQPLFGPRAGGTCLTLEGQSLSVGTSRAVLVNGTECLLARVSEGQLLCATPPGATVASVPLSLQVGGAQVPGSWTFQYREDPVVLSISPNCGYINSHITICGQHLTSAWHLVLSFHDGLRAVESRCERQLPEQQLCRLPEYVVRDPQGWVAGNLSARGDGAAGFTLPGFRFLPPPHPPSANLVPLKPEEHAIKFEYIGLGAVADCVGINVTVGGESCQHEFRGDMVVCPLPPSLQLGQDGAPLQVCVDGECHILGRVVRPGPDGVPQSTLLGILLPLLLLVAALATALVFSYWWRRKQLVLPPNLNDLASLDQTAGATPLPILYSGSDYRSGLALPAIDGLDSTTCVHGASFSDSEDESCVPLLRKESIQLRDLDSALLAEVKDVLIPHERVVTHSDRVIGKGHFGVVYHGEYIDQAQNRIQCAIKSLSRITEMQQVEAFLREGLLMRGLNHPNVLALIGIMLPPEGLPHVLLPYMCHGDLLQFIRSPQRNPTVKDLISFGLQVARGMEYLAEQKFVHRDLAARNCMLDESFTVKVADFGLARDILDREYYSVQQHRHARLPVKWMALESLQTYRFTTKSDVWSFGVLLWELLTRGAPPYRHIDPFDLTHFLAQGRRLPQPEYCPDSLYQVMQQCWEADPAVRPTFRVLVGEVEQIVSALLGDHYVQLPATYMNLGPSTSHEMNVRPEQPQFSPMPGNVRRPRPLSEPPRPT
Chain of UniProt P22607 (whole entry, looked up): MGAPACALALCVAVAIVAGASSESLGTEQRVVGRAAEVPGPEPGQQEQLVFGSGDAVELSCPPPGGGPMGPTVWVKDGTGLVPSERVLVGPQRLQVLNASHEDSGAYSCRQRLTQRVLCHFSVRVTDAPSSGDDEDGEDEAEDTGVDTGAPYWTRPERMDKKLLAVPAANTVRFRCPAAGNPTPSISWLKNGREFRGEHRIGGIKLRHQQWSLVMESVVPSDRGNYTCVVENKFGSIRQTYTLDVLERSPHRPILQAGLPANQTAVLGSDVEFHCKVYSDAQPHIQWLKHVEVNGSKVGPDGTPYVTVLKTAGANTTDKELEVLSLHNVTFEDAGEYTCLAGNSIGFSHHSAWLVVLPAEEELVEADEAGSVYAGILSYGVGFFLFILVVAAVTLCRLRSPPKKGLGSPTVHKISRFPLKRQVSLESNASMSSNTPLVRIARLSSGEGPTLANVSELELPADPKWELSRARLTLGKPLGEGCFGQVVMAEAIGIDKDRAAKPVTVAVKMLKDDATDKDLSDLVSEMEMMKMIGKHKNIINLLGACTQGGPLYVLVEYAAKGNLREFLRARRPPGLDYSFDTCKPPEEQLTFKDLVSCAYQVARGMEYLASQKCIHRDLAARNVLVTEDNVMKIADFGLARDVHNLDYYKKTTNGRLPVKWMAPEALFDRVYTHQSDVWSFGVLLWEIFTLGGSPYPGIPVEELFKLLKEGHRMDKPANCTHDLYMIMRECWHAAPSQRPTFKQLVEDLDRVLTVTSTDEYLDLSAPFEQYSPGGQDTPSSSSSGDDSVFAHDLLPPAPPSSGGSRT
Chain of UniProt Q9UHD2 (whole entry, looked up): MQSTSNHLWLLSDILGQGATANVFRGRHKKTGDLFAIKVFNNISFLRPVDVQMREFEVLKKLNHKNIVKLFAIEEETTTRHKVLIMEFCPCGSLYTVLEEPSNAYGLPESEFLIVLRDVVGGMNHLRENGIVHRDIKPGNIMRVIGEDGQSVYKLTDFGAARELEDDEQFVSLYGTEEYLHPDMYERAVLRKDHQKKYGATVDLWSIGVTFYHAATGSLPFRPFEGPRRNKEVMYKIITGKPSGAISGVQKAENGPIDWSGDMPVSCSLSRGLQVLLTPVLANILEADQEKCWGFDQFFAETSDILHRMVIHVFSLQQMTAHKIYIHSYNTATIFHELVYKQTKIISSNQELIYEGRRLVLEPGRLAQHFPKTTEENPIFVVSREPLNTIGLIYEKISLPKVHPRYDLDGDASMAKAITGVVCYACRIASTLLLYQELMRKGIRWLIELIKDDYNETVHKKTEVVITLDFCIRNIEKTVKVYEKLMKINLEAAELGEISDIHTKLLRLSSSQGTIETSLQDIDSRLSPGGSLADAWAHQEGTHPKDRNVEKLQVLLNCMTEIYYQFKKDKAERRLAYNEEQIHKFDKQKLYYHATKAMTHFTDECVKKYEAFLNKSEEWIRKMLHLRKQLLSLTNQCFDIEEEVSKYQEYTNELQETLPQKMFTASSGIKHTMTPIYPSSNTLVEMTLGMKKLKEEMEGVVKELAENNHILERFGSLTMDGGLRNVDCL
Chain of UniProt Q15349 (whole entry, looked up): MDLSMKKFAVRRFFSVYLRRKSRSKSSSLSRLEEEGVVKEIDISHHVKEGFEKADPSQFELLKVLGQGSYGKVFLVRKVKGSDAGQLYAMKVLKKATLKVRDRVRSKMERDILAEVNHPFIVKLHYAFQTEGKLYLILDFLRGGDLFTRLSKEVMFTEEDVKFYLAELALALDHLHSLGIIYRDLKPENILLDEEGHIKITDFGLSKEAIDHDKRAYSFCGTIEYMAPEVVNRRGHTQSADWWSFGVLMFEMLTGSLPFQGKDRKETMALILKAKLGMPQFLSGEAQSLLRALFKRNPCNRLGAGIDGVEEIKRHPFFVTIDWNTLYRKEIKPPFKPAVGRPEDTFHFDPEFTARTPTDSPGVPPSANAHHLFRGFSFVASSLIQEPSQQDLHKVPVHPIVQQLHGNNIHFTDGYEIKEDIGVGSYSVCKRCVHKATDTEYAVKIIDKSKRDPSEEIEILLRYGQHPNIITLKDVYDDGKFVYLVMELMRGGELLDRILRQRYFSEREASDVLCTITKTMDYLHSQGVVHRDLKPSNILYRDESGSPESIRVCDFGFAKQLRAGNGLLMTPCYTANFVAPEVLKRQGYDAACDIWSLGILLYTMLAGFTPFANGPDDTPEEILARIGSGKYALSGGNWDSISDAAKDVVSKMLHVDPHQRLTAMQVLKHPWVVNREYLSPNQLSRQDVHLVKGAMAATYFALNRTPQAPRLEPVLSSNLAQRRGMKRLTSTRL
Chain of UniProt Q99558 (whole entry, looked up): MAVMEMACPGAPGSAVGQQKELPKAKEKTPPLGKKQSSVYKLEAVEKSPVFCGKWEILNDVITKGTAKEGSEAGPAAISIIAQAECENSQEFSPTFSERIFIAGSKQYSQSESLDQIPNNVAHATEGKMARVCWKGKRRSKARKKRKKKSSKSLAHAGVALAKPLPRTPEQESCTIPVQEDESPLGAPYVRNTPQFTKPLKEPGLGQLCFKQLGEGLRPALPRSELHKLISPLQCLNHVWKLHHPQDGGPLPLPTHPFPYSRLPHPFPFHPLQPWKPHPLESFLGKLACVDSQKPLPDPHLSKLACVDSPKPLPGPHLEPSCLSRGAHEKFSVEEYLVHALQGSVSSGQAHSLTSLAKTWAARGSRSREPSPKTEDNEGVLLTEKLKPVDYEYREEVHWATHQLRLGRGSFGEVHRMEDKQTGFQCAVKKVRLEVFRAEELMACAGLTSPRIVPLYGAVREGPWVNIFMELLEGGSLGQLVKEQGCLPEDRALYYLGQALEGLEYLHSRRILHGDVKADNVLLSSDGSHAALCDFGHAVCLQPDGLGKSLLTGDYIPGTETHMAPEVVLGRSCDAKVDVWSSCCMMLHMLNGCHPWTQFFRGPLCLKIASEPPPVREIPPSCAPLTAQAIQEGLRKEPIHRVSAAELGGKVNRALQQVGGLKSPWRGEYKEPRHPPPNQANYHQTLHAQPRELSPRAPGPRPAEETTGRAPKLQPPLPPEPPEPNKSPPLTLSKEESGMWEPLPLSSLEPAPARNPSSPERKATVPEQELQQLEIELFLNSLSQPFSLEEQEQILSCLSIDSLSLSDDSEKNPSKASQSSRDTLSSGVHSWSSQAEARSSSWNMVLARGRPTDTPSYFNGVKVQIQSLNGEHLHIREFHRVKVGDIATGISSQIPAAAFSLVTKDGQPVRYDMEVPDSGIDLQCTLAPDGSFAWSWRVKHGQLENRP

Series 1
SMILES: CCN(c1nc(N)c(C(=O)N=C(N)N)nc1Cl)C(C)C
Observed: β-arrestin recruitment
Action: agonist
Method: PRESTO-Tango
Concentration: 10 µM
Relative to: untreated
Endpoint: fold over basal
C-C chemokine receptor type 2, isoform B (CCR2, Homo sapiens, UniProt P41597): 2.17
Opsin-5 (OPN5, Homo sapiens, UniProt Q6U736): 0.9
S1PR4 (Homo sapiens, UniProt O95977): 2.4
GPER1 (Homo sapiens, UniProt Q99527): 0.99

Series 2
SMILES: Fc1ccc(-c2nc3n(c2-c2ccncc2)CCS3)cc1
Observed: enzyme activity
Action: inhibitor
Concentration: 0.5 µM
Relative to: control
Endpoint: remaining activity
NEK1 (Homo sapiens, UniProt Q96PY6): 103%
FGFR3 (Homo sapiens, UniProt P22607): 91.8%
TAOK2 (Homo sapiens, UniProt Q9UL54): 95.7%
MERTK (Homo sapiens, UniProt Q12866): 88.7%
MAP3K14 (Homo sapiens, UniProt Q99558): 103%
RPS6KA2 (Homo sapiens, UniProt Q15349): 97.1%
MAP2K2 (Homo sapiens, UniProt P36507): 106%
TBK1 (Homo sapiens, UniProt Q9UHD2): 90.6%
WEE1 (Homo sapiens, UniProt P30291): 92.2%
ULK2 (Homo sapiens, UniProt Q8IYT8): 106%
MST1R (Homo sapiens, UniProt Q04912): 97.3%
MAPK3 (Homo sapiens, UniProt P27361): 103%
LCK (Homo sapiens, UniProt P06239): 96.2%
GSK3B (Homo sapiens, UniProt P49841): 105%

Series 3
SMILES: C[C@H](c1ccc(F)cc1)N(Cc1cccc(C(=O)O)c1)C(=O)c1cnc2ccccc2c1
Concentration: 1 µM
Endpoint: remaining binding
SIK1 (Homo sapiens, UniProt P57059); competition binding: 90%
Aurora kinase B (AURKB, Homo sapiens, UniProt Q96GD4); cell-free assay, competition with immobilised ligand: 100%
BLK (Homo sapiens, UniProt P51451); cell-free assay, competition with immobilised ligand: 88%
RIPK4 (Homo sapiens, UniProt P57078); cell-free assay, competition with immobilised ligand: 100%
CDK11A (Homo sapiens, UniProt Q9UQ88); binding, competition with immobilised ligand: 100%
CDK15 (Homo sapiens, UniProt Q96Q40); cell-free assay, competition with immobilised ligand: 100%

Series 4
Cell line: HaCaT
Concentration: 100 µM
Time: 60 h
Endpoint: viability
CNC(=O)c1cnn(-c2nc(N)c3ncn([C@@H]4O[C@H](CO)[C@@H](O)[C@H]4O)c3n2)c1: 129%
COc1cc(C(=O)N2CCOCC2)cc(OC)c1OC: 116%
O=C(O)CN(CCN(CC(=O)O)CC(=O)O)CC(=O)O: 146%
CC[C@@]1(O)C(=O)OCc2c1cc1n(c2=O)Cc2cc3c(CN(C)C)c(O)ccc3nc2-1: 17.8%
Cc1cc(=O)n(-c2ccccc2)n1C: 152%
